Measurements gathered from unrelated publications.
Values joined by “and” are separate records of one study, mostly repeats; a detail may differ. Numbers after ± are the reported error. ≈ marks a conversion by molar mass, not a printed value.
Organism: Staphylococcus aureus

CC[C@H](C)[C@@H]1NC(=O)[C@@H](CCCNC(=N)N)NC(=O)[C@@H](NC(=O)[C@@H](CC(C)C)NC(=O)[C@H](C)NC(=O)[C@H](C)NC(=O)[C@@H]2CCCN2C(=O)[C@@H](CC(C)C)NC(=O)[C@@H](NC(=O)[C@@H](CCCNC(=N)N)NC(=O)[C@@H](CC(C)C)NC(=O)[C@@H](CC(C)C)NC(=O)[C@@H](NC(=O)[C@@H](CCCNC(=N)N)NC(=O)[C@@H](CC(C)C)NC(=O)[C@@H](NC(=O)[C@@H](NC(=O)CNC(=O)[C@@H](CC(C)C)NC(=O)[C@@H](N)Cc2ccccc2)[C@@H](C)O)C(C)C)C(C)C)C(C)C)CSSC[C@@H](C(=O)O)NC(=O)[C@@H](CCCNC(=N)N)NC(=O)[C@@H](CCCNC(=N)N)NC(=O)[C@H](Cc2ccccc2)NC1=O  time to eradication (time-kill; MRSA NCTC 12493; 2-4 x MIC): ≤ 30 min
CC[C@H](C)[C@H](NC(=O)[C@H](CC(C)C)NC(=O)[C@H](CC(=O)O)NC(=O)[C@H](CCCNC(=N)N)NC(=O)[C@H](Cc1c[nH]c2ccccc12)NC(=O)[C@@H](N)CC(C)C)C(=O)N[C@@H](CS)C(=O)N[C@@H](CC(C)C)C(=O)N[C@@H](CS)C(=O)N[C@@H](CCCNC(=N)N)C(=O)N[C@@H](CC(N)=O)C(=O)N[C@@H](CCCNC(=N)N)C(=O)N[C@@H](CCCNC(=N)N)C(=O)N[C@@H](CS)C(=O)N[C@@H](CC(N)=O)C(=O)N[C@@H](CCCNC(=N)N)C(=O)NCC(=O)N[C@@H](CCC(N)=O)C(=O)N[C@@H](CC(C)C)C(=O)N[C@@H](Cc1ccccc1)C(=O)N1CCC[C@H]1C(=O)NCC(=O)N[C@@H](Cc1c[nH]c2ccccc12)C(=O)N[C@@H](CS)C(=O)N1CCC[C@H]1C(=O)NCC(=O)N[C@@H](Cc1c[nH]c2ccccc12)C(=O)N[C@@H](Cc1c[nH]c2ccccc12)C(=O)N[C@@H](CC(C)C)C(=O)N[C@@H](CCCNC(=N)N)C(=O)N[C@@H](CS)C(=O)N[C@@H](CS)C(=O)N[C@@H](CCCNC(=N)N)C(=O)N[C@@H](CCCNC(=N)N)C(N)=O  bactericidal rate (colony count; 50 µg/mL, 2 h, 37 °C, pretreated trypsin intestinal fluid, together with: trypsin 1 mg/mL): 92%
CC(C)[C@H]1NC(=O)[C@H](Cc2ccccc2)NC(=O)[C@@H](C(C)C)NC(=O)[C@@H](C)NC(=O)[C@H](C)NC(=O)[C@@H](Cc2c(-c3ccc(-c4ccc5ccccc5c4)cc3)[nH]c3ccccc23)NC(=O)[C@@H](C)NC1=O  MIC90 (broth dilution): > 50 µM
CCCNC(=O)[C@H](Cc1ccc(O)cc1)NC(=O)[C@@H]1Cc2ccc(O)c(c2)-c2cc(ccc2O)[C@@H](NC(=O)[C@@H](NC(=O)[C@H](CC(N)=O)NC(=O)[C@@H](Cc2ccc(O)cc2)NC(=O)[C@@H](CC(C)C)NC)c2ccc(O)cc2)C(=O)N1  IC50 (bacterial growth): > 40 µM
CC(C)C[C@H](NC(=O)[C@H](CCN)NC(=O)[C@H](CCN)NC(=O)[C@@H](Cc1ccccc1)NC(=O)[C@H](CC(C)C)NC(=O)[C@H](CCN)NC(=O)[C@H](CCN)NC(=O)[C@@H](CCN)NC(=O)CCS)C(N)=O  MBC (ATCC 6538; 24 h, 37 °C): 64 µM (≈ 62.7 µg/mL)
O=CCNCCOn1c(=O)n(OCCNCCO)c(=O)n(OCCNCCOn2c(=O)n(OCCNCCO)c(=O)n(OCCNCCO)c2=O)c1=O  MLC (broth microdilution): 4 ± 1 µg/mL (≈ 5.2 µM)
OB(O)c1ccc(C(F)(F)F)s1  growth (OD600; USA300 fphE::Tn transposon mutant; 1 µM; reference: wild type): 69.1% and 71.9% and 83.1% and 83.9% and 78.2% and 79.4%
CC(C)C[C@H](NC(=O)[C@H](CC(C)C)NC(=O)[C@H](CCCCN)NC(=O)[C@H](Cc1ccccc1)NC(=O)[C@@H](NC(=O)[C@H](CCCNC(=N)N)NC(=O)[C@@H](N)CCCCN)C(C)C)C(=O)N[C@@H](CCCCN)C(=O)N[C@@H](CCCNC(=N)N)C(=O)N[C@@H](Cc1ccc(O)cc1)C(=O)N[C@@H](Cc1c[nH]c2ccccc12)C(=O)N[C@@H](CCCNC(=N)N)C(=O)N[C@@H](CCC(N)=O)C(=O)N[C@@H](CC(C)C)C(=O)N[C@@H](CCCCN)C(=O)N[C@@H](CCCCN)C(=O)N1CCC[C@H]1C(=O)N[C@H](C(=O)N[C@@H](CCCNC(=N)N)C(=O)NCCOCCOCC(=O)O)C(C)C  minimum concentration for visible aggregation (Congo red staining; ATCC 25295; 4 h, 37 °C): ≥ 20 µM
CC[C@H](C)[C@@H]1NC(=O)[C@H](CO)NC(=O)C(C)(CCCCN)NC(=O)[C@@H]2CSSC[C@@H](C(=O)N[C@@H](Cc3ccc(O)cc3)C(N)=O)NC(=O)[C@H](CCCCN)NC(=O)[C@@H]3CSSC[C@H](NC(=O)[C@H](CCCNC(=N)N)NC(=O)C(C)(CC(C)C)NC(=O)[C@H](CC(=O)O)NC(=O)[C@H](CC(=O)O)NC(=O)[C@H](CCC(=O)O)NC(=O)[C@H](CC(N)=O)NC(=O)[C@H](Cc4c[nH]c5ccccc45)NC(=O)C(C)(CC)NC(=O)CNC(=O)[C@H](CC(N)=O)NC(=O)[C@@H](NC(=O)CNC(=O)[C@H](Cc4ccccc4)NC(=O)CN)CSSC[C@H](NC(=O)[C@H](Cc4ccc(O)cc4)NC(=O)CNC(=O)CNC(=O)[C@H](CCCCN)NC(=O)[C@H](Cc4ccc(O)cc4)NC(=O)[C@H]4CCCN4C(=O)[C@@H]4CCCN4C1=O)C(=O)N[C@@H](C)C(=O)N[C@@H](CCCCN)C(=O)N1CCC[C@@H]1C(=O)NCC(=O)N[C@@H](Cc1ccccc1)C(=O)N[C@@H](C(C)C)C(=O)N3)C(=O)N[C@@H](Cc1c[nH]cn1)C(=O)NC(C)(C)C(=O)N[C@@H](Cc1c[nH]cn1)C(=O)N2 (stereo partly shown)  MBC (469; 24 h, 37 °C, 99.9% killing): 2 µM (≈ 8.92 µg/mL)
CCc1ccn2c(C(=O)NCc3ccc(C)cc3)c(C)nc2c1  inhibition zone (microbial growth; SG511; 2 mM): 0 mm
O[C@]12C=C(c3nccc4c3[nH]c3ccccc34)[C@@H]3CCN(CCCC/C=C\CC1)C[C@@]31C[C@@H]3/C=C\CCCCN3[C@H]12  IC50 (growth; ATCC 43300, MRSA; 5% bovine calf serum): 1.15 µg/mL
CC(C)[C@H]1NC(=O)[C@H](Cc2ccccc2)NC(=O)[C@@H](C(C)C)NC(=O)[C@@H](C)NC(=O)[C@H](C)NC(=O)[C@@H](Cc2c(-c3ccc(-c4ccc(-c5ccccc5)cc4)cc3)[nH]c3ccccc23)NC(=O)[C@@H](CO)NC1=O  MIC90 (broth dilution): > 50 µM
CC[C@H](C)[C@@H]1NC(=O)[C@H](CO)NC(=O)[C@H](CCCCN)NC(=O)[C@@H]2CSSC[C@@H](C(=O)N[C@@H](Cc3ccc(O)cc3)C(N)=O)NC(=O)[C@H](CCCCN)NC(=O)[C@@H]3CSSC[C@H](NC(=O)[C@H](CCCNC(=N)N)NC(=O)[C@H](CC(C)C)NC(=O)[C@H](CC(=O)O)NC(=O)[C@H](CC(=O)O)NC(=O)[C@H](CCC(=O)O)NC(=O)[C@H](CC(N)=O)NC(=O)[C@H](Cc4c[nH]c5ccccc45)NC(=O)C(C)(CC)NC(=O)CNC(=O)[C@H](CC(N)=O)NC(=O)[C@@H](NC(=O)CNC(=O)[C@H](Cc4ccccc4)NC(=O)CN)CSSC[C@H](NC(=O)[C@H](Cc4ccc(O)cc4)NC(=O)CNC(=O)CNC(=O)[C@H](CCCCN)NC(=O)[C@H](Cc4ccc(O)cc4)NC(=O)[C@H]4CCCN4C(=O)[C@@H]4CCCN4C1=O)C(=O)N[C@@H](C)C(=O)N[C@@H](CCCCN)C(=O)N1CCC[C@@H]1C(=O)NCC(=O)N[C@@H](Cc1ccccc1)C(=O)N[C@@H](C(C)C)C(=O)N3)C(=O)N[C@@H](Cc1c[nH]cn1)C(=O)N[C@@H](CC(N)=O)C(=O)N[C@@H](Cc1c[nH]cn1)C(=O)N2 (stereo partly shown)  MBC (467; 24 h, 37 °C, 99.9% killing): 8 µM (≈ 35.7 µg/mL)

Excerpt of the above:
CC(C)C[C@H](NC(=O)[C@H](CC(C)C)NC(=O)[C@H](CCCCN)NC(=O)[C@H](Cc1ccccc1)NC(=O)[C@@H](NC(=O)[C@H](CCCNC(=N)N)NC(=O)[C@@H](N)CCCCN)C(C)C)C(=O)N[C@@H](CCCCN)C(=O)N[C@@H](CCCNC(=N)N)C(=O)N[C@@H](Cc1ccc(O)cc1)C(=O)N[C@@H](Cc1c[nH]c2ccccc12)C(=O)N[C@@H](CCCNC(=N)N)C(=O)N[C@@H](CCC(N)=O)C(=O)N[C@@H](CC(C)C)C(=O)N[C@@H](CCCCN)C(=O)N[C@@H](CCCCN)C(=O)N1CCC[C@H]1C(=O)N[C@H](C(=O)N[C@@H](CCCNC(=N)N)C(=O)NCCOCCOCC(=O)O)C(C)C  minimum concentration for visible aggregation (Congo red staining; ATCC 25295; 4 h, 37 °C): ≥ 20 µM
CC[C@H](C)[C@@H]1NC(=O)[C@H](CO)NC(=O)C(C)(CCCCN)NC(=O)[C@@H]2CSSC[C@@H](C(=O)N[C@@H](Cc3ccc(O)cc3)C(N)=O)NC(=O)[C@H](CCCCN)NC(=O)[C@@H]3CSSC[C@H](NC(=O)[C@H](CCCNC(=N)N)NC(=O)C(C)(CC(C)C)NC(=O)[C@H](CC(=O)O)NC(=O)[C@H](CC(=O)O)NC(=O)[C@H](CCC(=O)O)NC(=O)[C@H](CC(N)=O)NC(=O)[C@H](Cc4c[nH]c5ccccc45)NC(=O)C(C)(CC)NC(=O)CNC(=O)[C@H](CC(N)=O)NC(=O)[C@@H](NC(=O)CNC(=O)[C@H](Cc4ccccc4)NC(=O)CN)CSSC[C@H](NC(=O)[C@H](Cc4ccc(O)cc4)NC(=O)CNC(=O)CNC(=O)[C@H](CCCCN)NC(=O)[C@H](Cc4ccc(O)cc4)NC(=O)[C@H]4CCCN4C(=O)[C@@H]4CCCN4C1=O)C(=O)N[C@@H](C)C(=O)N[C@@H](CCCCN)C(=O)N1CCC[C@@H]1C(=O)NCC(=O)N[C@@H](Cc1ccccc1)C(=O)N[C@@H](C(C)C)C(=O)N3)C(=O)N[C@@H](Cc1c[nH]cn1)C(=O)NC(C)(C)C(=O)N[C@@H](Cc1c[nH]cn1)C(=O)N2 (stereo partly shown)  MBC (469; 24 h, 37 °C, 99.9% killing): 2 µM (≈ 8.92 µg/mL)
